{"data": "Measured values from different studies", "note": "Numbered parts are unrelated; each lists some results of a single study."}
{"data": "Study 1", "target": "Histone acetyltransferase KAT6A, winged helix 1, GST fusion (KAT6A, Homo sapiens, UniProt Q92794, residues 1-85)", "method": "protein binding microarray", "molecule type": "double-stranded DNA, one strand shown", "sample": "in vitro", "concentration": "not given", "setting": "8-mer, flanks averaged, mean of 2 arrays, mostly near background", "reference": "not given", "direction": "higher = stronger binding", "Construct (chain)": "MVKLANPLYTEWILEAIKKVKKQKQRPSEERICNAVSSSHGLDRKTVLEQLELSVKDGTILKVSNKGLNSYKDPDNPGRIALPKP"}
{"Oligonucleotide": "CGCACGCA", "E-score": 0.25}
{"Oligonucleotide": "ACCCGGAT", "E-score": 0.0628}
{"Oligonucleotide": "GGGTTCCA", "E-score": 0.0435}
{"Oligonucleotide": "CTCTCCTA", "E-score": -0.0482}
{"Oligonucleotide": "CGACGCGA", "E-score": 0.347}
{"Oligonucleotide": "CCTCTAGC", "E-score": -0.149}
{"Oligonucleotide": "GGGTTGAC", "E-score": 0.122}
{"Oligonucleotide": "CCTAATAA", "E-score": -0.0999}
{"Oligonucleotide": "GACAGATA", "E-score": -0.0146}
{"Oligonucleotide": "AGAAATGC", "E-score": -0.0488}
{"data": "Study 2", "target": "Sal-like protein 4, full length isoform A (SALL4, Homo sapiens, UniProt Q9UJQ4, residues 1-1053)", "method": "universal PBM", "molecule type": "double-stranded DNA, one strand shown", "sample": "in vitro", "concentration": "600 nM", "setting": "8-mer, flanks averaged, mean of replicates", "direction": "higher = stronger binding", "sequence of UniProt Q9UJQ4 (whole entry, looked up)": "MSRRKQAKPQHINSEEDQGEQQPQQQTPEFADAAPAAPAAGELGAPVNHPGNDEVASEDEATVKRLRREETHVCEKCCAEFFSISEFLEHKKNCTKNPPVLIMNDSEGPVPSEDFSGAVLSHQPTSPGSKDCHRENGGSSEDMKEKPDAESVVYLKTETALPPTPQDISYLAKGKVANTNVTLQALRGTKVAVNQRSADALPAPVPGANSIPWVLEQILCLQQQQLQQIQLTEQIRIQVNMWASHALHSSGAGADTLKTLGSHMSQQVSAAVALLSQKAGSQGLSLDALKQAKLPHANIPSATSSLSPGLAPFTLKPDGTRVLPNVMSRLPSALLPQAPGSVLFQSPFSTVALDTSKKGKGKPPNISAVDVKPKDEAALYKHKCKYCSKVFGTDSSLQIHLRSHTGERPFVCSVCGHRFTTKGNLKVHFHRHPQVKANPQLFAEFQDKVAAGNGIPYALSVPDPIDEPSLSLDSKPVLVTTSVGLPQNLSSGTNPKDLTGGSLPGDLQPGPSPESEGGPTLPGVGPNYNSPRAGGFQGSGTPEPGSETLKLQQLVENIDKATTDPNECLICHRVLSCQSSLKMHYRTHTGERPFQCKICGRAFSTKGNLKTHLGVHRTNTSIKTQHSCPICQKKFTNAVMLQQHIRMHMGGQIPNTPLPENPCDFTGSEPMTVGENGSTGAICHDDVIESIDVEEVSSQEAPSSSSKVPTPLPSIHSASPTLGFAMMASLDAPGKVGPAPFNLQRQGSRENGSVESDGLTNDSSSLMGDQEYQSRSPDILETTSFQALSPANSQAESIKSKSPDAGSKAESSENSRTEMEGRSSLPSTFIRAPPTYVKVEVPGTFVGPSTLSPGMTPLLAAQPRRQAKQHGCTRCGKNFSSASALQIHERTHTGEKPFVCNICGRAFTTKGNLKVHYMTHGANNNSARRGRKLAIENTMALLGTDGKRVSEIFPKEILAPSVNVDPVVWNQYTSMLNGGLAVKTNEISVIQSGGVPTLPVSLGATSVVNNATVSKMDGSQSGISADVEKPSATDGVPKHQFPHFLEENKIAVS"}
{"Oligonucleotide": "GCACGTGC", "E-score": -0.0897}
{"Oligonucleotide": "GGATACCA", "E-score": -0.153}
{"Oligonucleotide": "AGCTTACT", "E-score": -0.0519}
{"Oligonucleotide": "GAAGCCGC", "E-score": -0.135}
{"Oligonucleotide": "ATGCTGAG", "E-score": -0.242}
{"Oligonucleotide": "GAGGGGTA", "E-score": -0.276}
{"Oligonucleotide": "CTCGCCTA", "E-score": -0.126}
{"Oligonucleotide": "CCCGACTC", "E-score": -0.25}
{"Oligonucleotide": "ACAGGACA", "E-score": -0.0667}
{"Oligonucleotide": "CCCACAGG", "E-score": -0.265}
{"Oligonucleotide": "AGAAGCTA", "E-score": 0.036}
{"data": "Study 3", "target": "Phosphate system positive regulatory protein PHO4, full length, GST-tagged (PHO4, Saccharomyces cerevisiae, UniProt P07270, residues 1-312)", "method": "competition protein-binding microarray", "molecule type": "double-stranded DNA, one strand shown", "sample": "in vitro", "concentration": "2 µM", "setting": "whole 60-bp probe, lowest competitor level", "added": "Cbf1 competitor, 0.05 µM", "direction": "higher = stronger binding", "shared flanks, not repeated": "… GTCTTGATTCGCTTGACGCTGCTG", "Residues (chain)": "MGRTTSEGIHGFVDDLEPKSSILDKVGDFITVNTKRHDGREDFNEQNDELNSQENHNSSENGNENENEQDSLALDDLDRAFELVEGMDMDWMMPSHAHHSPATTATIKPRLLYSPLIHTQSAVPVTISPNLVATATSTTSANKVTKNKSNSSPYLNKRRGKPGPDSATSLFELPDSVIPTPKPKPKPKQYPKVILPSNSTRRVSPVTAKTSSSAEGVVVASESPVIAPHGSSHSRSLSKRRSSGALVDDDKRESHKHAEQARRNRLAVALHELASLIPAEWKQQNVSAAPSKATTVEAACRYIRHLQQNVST"}
{"Oligonucleotide": "TAATGGTATAGGCGTCACCTGCCGAAACAAAAATCG", "fluorescence intensity [a.u.]": 4050}
{"Oligonucleotide": "CGGGGTTAAGTTTGACGGGTGGGTGGCTTGCAGCAG", "fluorescence intensity [a.u.]": 5310}
{"Oligonucleotide": "CATGAATGTGGTACCCACGTTCTGCGTTAGGACTGT", "fluorescence intensity [a.u.]": 14500}
{"Oligonucleotide": "CATACCCAACCTTGTTCGGTGGGTGAAGATATTTGT", "fluorescence intensity [a.u.]": 3530}
{"Oligonucleotide": "AAATTACTAAGTTGTCTGGTGGGTGACGCCGTATGA", "fluorescence intensity [a.u.]": 4090}
{"Oligonucleotide": "GTATGCCTAAGGAAGCATGTGACAGGTATGCCCACT", "fluorescence intensity [a.u.]": 10400}
{"Oligonucleotide": "GAGCCCTCTGTATTTCATGTGACGGGAGTGTAATTT", "fluorescence intensity [a.u.]": 4010}
{"Oligonucleotide": "CAGTTCTACTGGTTCGACGTGCTTTACACCCGCAAC", "fluorescence intensity [a.u.]": 5340}
{"Oligonucleotide": "CGTCCTAGTGATTGTCACTTCACTTCCATGAGGAAG", "fluorescence intensity [a.u.]": 4620}
{"Oligonucleotide": "GTAGTTTGCATTTTGCACGTTTCCCTTTCCATGCAA", "fluorescence intensity [a.u.]": 11700}
{"Oligonucleotide": "TTGCGGACGGACCATCACGCAAGTTTTTTAACGCGA", "fluorescence intensity [a.u.]": 3600}
{"data": "Other studies, line by line"}
{"Substance": "PhoQ, residues 284 288 289 292 302 303 SLANIV", "target": "PhoP, residues 12 14 15 18 19 ICWRQ (Escherichia coli, UniProt P23836)", "test": "Sort-seq, item: YFP reporter", "system": "E. coli", "setting": "PhoQ-PhoP variant library, added: 10 µM Mg2+", "scale": "reference: high Mg2+ state, higher = stronger signaling", "quantity": "fold induction", "result": 11.1}
